Measurements pooled from the literature.
Every numbered part comes from another study and shows a few of its results, in no order.

Series 1
Cell line: HEK-293T/ACE2
Tested at: 10 µM
Time: 16 h
Reference: vehicle
`NC(=O)c1cccnc1` has a viability of 102%.
For `CCOc1nc2cccc(C(=O)O)c2n1Cc1ccc(-c2ccccc2-c2nnn[nH]2)cc1`, the viability was 97.4%.
For `COc1cc(C(C)=O)ccc1OCCCN1CCC(c2noc3cc(F)ccc23)CC1`, the viability was 102%.
For `C[C@]12CCC(=O)C=C1CC[C@@H]1[C@@H]2CC[C@@]2(C)[C@H]1CC[C@]2(C)O`, the viability was 98.8%.

Series 2
Target: TAR DNA-binding protein 43, full length, His tag (TARDBP, Homo sapiens, UniProt Q13148, residues 1-414)
Technique: RNA Bind-n-Seq
Form: RNA
Matrix: in vitro
Tested at: 20 nM
Setting: 6-mer, flanks averaged, single round
Together with: 150 mM LiCl
Reference: input library
Reading: higher = stronger binding
`CAUAAA` — result for “6-mer enrichment (R)”: 0.838.
`CGUCAU`: “6-mer enrichment (R)” 0.898.
`GACUGC` — result for “6-mer enrichment (R)”: 0.927.
Under “6-mer enrichment (R)”, `UGAGUC` is recorded as 0.962.
Under “6-mer enrichment (R)”, `GCUGCA` is recorded as 0.953.

Series 3
Target: Replicase polyprotein 1ab, nsp13 helicase (rep, Severe acute respiratory syndrome coronavirus 2, UniProt P0DTD1)
Mode: inhibitor
Tested at: 20 µM
For `NS(=O)(=O)c1cc2c(cc1Cl)NC(C1CC3C=CC1C3)NS2(=O)=O` (stereo not drawn), the inhibition was 6.03%.
For `Nc1nc2c(c(N3CCNCC3)n1)CCC1=C2[C@H]2CCCC[C@H]2O1`, the inhibition was -2.76%.
The inhibition of `CNC(=O)c1cccc2cc(Oc3ccnc4cc(OCC5(N)CC5)c(OC)cc34)ccc12` is reported as 18%.
For `COc1ccc(OC)c(C(O)CNC(=O)CN)c1` (stereo not drawn), the inhibition was 12.1%.
`COc1ccc(C(=O)N2CCCc3cc(C4=NNC(=O)SC4C)ccc32)cc1OC` (stereo not drawn) gave an inhibition of 7.3%.
For `O=C1N=C2SCCN2C(=O)C1Cc1ccc(Cl)cc1` (stereo not drawn), the inhibition was 8.99%.
`CC(C)C[C@H](NC(=O)[C@H](Cc1ccccc1)NC(=O)c1cnccn1)B(O)O` gave an inhibition of 8.37%.
`CCOC(=O)[C@H](CCc1ccccc1)N[C@@H](C)C(=O)N(CC(=O)O)C1Cc2ccccc2C1` has an inhibition of 1.57%.
With `CC(C)(C)C[C@@H]1N[C@@H](C(=O)N[C@H]2CC[C@H](O)CC2)[C@H](c2cccc(Cl)c2F)[C@]12C(=O)Nc1cc(Cl)ccc12` the inhibition was 7.54%.
For `COc1cc2nc(N3CCC(N4CCCCC4)CC3)nc(NC3CCCCCC3)c2cc1OC`, the inhibition was 32.9%.
`C[C@]12C=CC(=O)C=C1CC[C@@H]1[C@@H]2[C@@H](O)C[C@@]2(C)[C@H]1CC[C@]2(O)C(=O)COP(=O)(O)O` has an inhibition of 4.29%.
`CCC(=C(CC)c1ccc(OP(=O)(O)O)cc1)c1ccc(OP(=O)(O)O)cc1` gave an inhibition of 2.12%.
For `COc1cc2c(NC3CCN(C(C)C)CC3)nc(N3CCC(F)(F)CC3)nc2cc1OCCCN1CCCC1`, the inhibition was 11.6%.
With `CCCOC(C(=O)OC1CCN(C)CC1)(c1ccccc1)c1ccccc1` the inhibition was 0.45%.
The inhibition of `CCCCCCCCCCCCCCCC(=O)OC(CC(=O)[O-])C[N+](C)(C)C` (stereo not drawn) is reported as 4.32%.
The inhibition of `COc1nc(C)cnc1NS(=O)(=O)c1cccnc1-c1ccc(-c2nnco2)cc1` is reported as 5.06%.
`O=C(O)c1ccccc1C(=O)Nc1ccc(S(=O)(=O)Nc2nccs2)cc1` gave an inhibition of 4.64%.
`Cn1c(=O)c2c(ncn2CCOC(=O)C(C)(C)Oc2ccc(Cl)cc2)n(C)c1=O` has an inhibition of 1.04%.
`NCCCC[C@H](NC(=O)[C@@H](Cc1cc(Br)c(O)c(Br)c1)NC(=O)N1CCC(N2Cc3ccccc3NC2=O)CC1)C(=O)N1CCN(c2ccncc2)CC1` gave an inhibition of 11.2%.
With `C[C@H](CCC(=O)NCCS(=O)(=O)O)[C@H]1CC[C@H]2[C@@H]3[C@@H](O)C[C@@H]4C[C@H](O)CC[C@]4(C)[C@H]3CC[C@]12C` the inhibition was 8.27%.
The inhibition of `Cc1nc2ccc(-n3ncc(C(=O)c4cc5ccccc5[nH]4)c3N)cc2[nH]1` is reported as 7.97%.
For `O=C(/C=C/C=C/c1ccc2c(c1)OCO2)N1CCCCC1`, the inhibition was 0.16%.
For `Cc1c(Cl)cccc1S(=O)(=O)Nc1nc(NCCc2ccccc2)nc2c1CN(Cc1ccccc1)CC2`, the inhibition was 4.2%.
With `O=C(O)c1cnn(-c2nc3cc(OC(F)(F)F)c(Cl)cc3[nH]2)c1` the inhibition was 2.77%.
With `C[n+]1ccccc1C=NO` the inhibition was 4.27%.

Series 4
Target: Replicase polyprotein 1ab, main protease (rep, Severe acute respiratory syndrome coronavirus 2, UniProt P0DTD1)
Effect on: enzyme activity
Mode: inhibitor
Tested at: 20 µM
Setting: hit confirmation, no DTT
For `C[C@@](Cc1ccc(O)c(O)c1)(NN)C(=O)O`, the inhibition was 94.5%.
For `O=C(O)C(=O)CBr`, the inhibition was 74%.
With `COc1ccc2[nH]c([S+]([O-])Cc3ncc(C)c(OC)c3C)nc2n1` (stereo not drawn) the inhibition was 90.2%.
The inhibition of `CCn1c(-c2nonc2N)nc2cnc(Oc3cccc(NC(=O)c4ccc(OCCN5CCOCC5)cc4)c3)cc21` is reported as 60.4%.

Series 5
Target: Histone acetyltransferase KAT6A, winged helix 1, GST fusion (KAT6A, Homo sapiens, UniProt Q92794, residues 1-85)
Technique: protein binding microarray
Form: double-stranded DNA, one strand shown
Matrix: in vitro
Tested at: not given
Setting: 8-mer, flanks averaged, mean of 2 arrays, mostly near background
Reference: not given
Reading: higher = stronger binding
Construct (chain): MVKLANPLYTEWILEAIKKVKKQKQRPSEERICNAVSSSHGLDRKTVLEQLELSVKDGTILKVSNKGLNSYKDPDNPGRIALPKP
The E-score of `AGAGATTA` is reported as -0.138.
`CCTTTTGC` gave an E-score of -0.0221.
With `GTTAGTAA` the E-score was -0.11.
`ATTTTGCC` gave an E-score of -0.0384.
`CAACCGAA` gave an E-score of -0.09.
With `ACGGAAAT` the E-score was 0.165.
`ACCCTACC` gave an E-score of 0.0106.
`GATTCGGC` has an E-score of 0.28.

Series 6
Target: Myc proto-oncogene protein, bHLH-zipper, MAX partner unstated (MYC, Homo sapiens, UniProt P01106, residues 368-449)
Sequence of UniProt P01106 (368-449, looked up): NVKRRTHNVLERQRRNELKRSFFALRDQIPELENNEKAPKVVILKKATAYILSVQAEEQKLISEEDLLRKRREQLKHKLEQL
Technique: protein-binding microarray
Form: double-stranded DNA, one strand shown
Matrix: in vitro
Tested at: not given
Setting: k-mer, scored over probes, only values ≥0.25
Reading: higher = stronger binding
`TGCACGCA` gave an E-score of 0.348.
`CACACGAC` gave an E-score of 0.271.
`CGCGGCGC` has an E-score of 0.251.
With `CACGACAA` the E-score was 0.263.
With `CACGCGCA` the E-score was 0.435.
`CATGTCCA` has an E-score of 0.3.
With `ACGACATG` the E-score was 0.279.
With `CAACGTGC` the E-score was 0.432.

Repeated from above (series 5):
`CAACCGAA` gave an E-score of -0.09.
`ACCCTACC` gave an E-score of 0.0106.
The E-score of `AGAGATTA` is reported as -0.138.
With `GTTAGTAA` the E-score was -0.11.
`CCTTTTGC` gave an E-score of -0.0221.
With `ACGGAAAT` the E-score was 0.165.
